Measurements gathered from unrelated publications.
Each numbered part is a random draw from the data of one study; scales do not carry over between parts. Positions count from the first letter of the parent shown.

Set 1
Target: Interferon regulatory factor 3, full length, phosphomimetic (IRF3, Homo sapiens, UniProt Q14653, residues 1-427, S386D/S396D/S398D/S402D/T404D/S405D)
Sequence of UniProt Q14653 (whole entry, unmodified, looked up): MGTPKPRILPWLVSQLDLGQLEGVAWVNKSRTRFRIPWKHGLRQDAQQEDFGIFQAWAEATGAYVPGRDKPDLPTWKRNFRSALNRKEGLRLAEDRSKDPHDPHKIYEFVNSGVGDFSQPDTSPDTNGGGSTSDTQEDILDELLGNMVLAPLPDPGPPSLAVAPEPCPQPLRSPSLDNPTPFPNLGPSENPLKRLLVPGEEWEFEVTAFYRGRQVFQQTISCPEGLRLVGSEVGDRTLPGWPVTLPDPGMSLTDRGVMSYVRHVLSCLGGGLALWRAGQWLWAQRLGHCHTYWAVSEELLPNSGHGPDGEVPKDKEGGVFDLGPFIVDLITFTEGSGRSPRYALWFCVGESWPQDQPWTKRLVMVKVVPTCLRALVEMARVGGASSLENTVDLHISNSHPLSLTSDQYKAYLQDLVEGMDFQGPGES
Method: protein-binding microarray
Form: double-stranded DNA, one strand shown
Matrix: in vitro
Concentration: 2540 nM top
Setting: 60-bp whole probe
Added: salmon DNA 0.4 mg/ml
Baseline: random background probes
Direction: higher = stronger binding
All sequences stand within: GCCTAGCAC … GTCTTGATTCGCTTGACGCTGCTG
For `TTAGGTCTGGACTTTCGGTTAGTGCTA`, “fitted relative affinity” read 0.981 z-score.
For `GACGATCTCAGTAACGAGACGTGCTAG`, “fitted relative affinity” read 0.39 z-score.
For `TCATTTTTTTTTCTACTACTGTGCTAG`, “fitted relative affinity” read 1.69 z-score.
For `TCATATGTCTGTTTTTGACTGTGCTAG`, “fitted relative affinity” read 0.99 z-score.
Under “fitted relative affinity”, `CATATTCTCTTCTTGCATCTGTGCTAG` is recorded as 2.64 z-score.

Set 2
Target: CCNE2, cyclin fold, Cln2 fusion (human)
Method: yeast growth competition, sequencing
Matrix: yeast
Setting: strong parent motif
Baseline: not given
Direction: higher = stronger binding
Parent: PKN2 docking peptide (human); VSAVRKLDFSDTM
`VSAVRKGDFSDTM [L7G]` — result for “normalised enrichment score”: 0.187.
`VSAVRKLDFYDTM [S10Y]` — result for “normalised enrichment score”: 3.25.
`VSAVRKLDFRDTM [S10R]`: “normalised enrichment score” 3.59.
For `VSAVRKEDFSDTM [L7E]`, “normalised enrichment score” read -0.181.
For `VSACRKLDFSDTM [V4C]`, “normalised enrichment score” read 4.56.
`VSAVRKLDFSDRM [T12R]`: “normalised enrichment score” 4.85.

Set 3
Target: TAR DNA-binding protein 43, full length, His tag (TARDBP, Homo sapiens, UniProt Q13148, residues 1-414)
Method: RNA Bind-n-Seq
Form: RNA
Matrix: in vitro
Concentration: 20 nM
Setting: 6-mer, flanks averaged, single round
Added: 150 mM LiCl
Baseline: input library
Direction: higher = stronger binding
`UUCCUC`: “6-mer enrichment (R)” 0.92.
For `AAAGCU`, “6-mer enrichment (R)” read 0.824.
Under “6-mer enrichment (R)”, `UCACUA` is recorded as 0.85.
For `GGCUAU`, “6-mer enrichment (R)” read 0.946.
`AUAUCU`: “6-mer enrichment (R)” 0.871.
For `CAUCGG`, “6-mer enrichment (R)” read 0.828.
`UUAUUA`: “6-mer enrichment (R)” 1.13.
Under “6-mer enrichment (R)”, `CAGCUC` is recorded as 0.854.

Mixed results
`PhoQ, residues 284 288 289 292 302 303 AQGLTV` has a fold induction of 0.557 (PhoP, residues 12 14 15 18 19 NFCKL (Escherichia coli, UniProt P23836); Sort-seq, refers to: YFP reporter; E. coli; PhoQ-PhoP variant library, added: 10 µM Mg2+; baseline: high Mg2+ state, higher = stronger signaling).

Some of these lines once more (set 3):
For `CAUCGG`, “6-mer enrichment (R)” read 0.828.
